Results from different studies.
A part holds a random share of what one study measured. Changes are numbered by the printed parent chain.

Study 1 — technique: DHFR PCA, deep sequencing; medium: yeast; with: (+)-ABA 0.0091 µM; relative to: wild-type fitted maximum; direction: higher = stronger binding
Target: ABI1, truncated, D143A, DHFR fusion (Arabidopsis thaliana)
Setting: methotrexate growth selection, single substitutions
Starting sequence: PYL1, truncated, DHFR fusion (Arabidopsis thaliana); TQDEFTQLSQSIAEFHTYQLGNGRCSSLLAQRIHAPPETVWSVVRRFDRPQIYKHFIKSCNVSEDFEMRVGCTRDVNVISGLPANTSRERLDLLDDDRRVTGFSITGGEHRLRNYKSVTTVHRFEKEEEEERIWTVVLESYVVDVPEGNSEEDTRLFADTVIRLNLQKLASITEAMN
Variant	relative binding score [%]
L29E	-2.9
N85H	74.5
E147F	14.1
A30H	6.35
T39N	-6.2
V78D	3.38
V62P	-1.96
E38Y	-2.09
V136H	0.838
L94I	-0.0786
R69P	-12.6
S87W	33.4
E14T	2.49
H16G	2.6
N61M	29.2
H16K	-8.99
L82N	11.7
V40N	-9.77
N61T	60.1
V136M	5.5
H110Y	12.3
T106W	-6.67
V137E	-1.81
L164T	4.97
L8R	2.55

Study 2 — technique: protein binding microarray; form: double-stranded DNA, one strand shown; medium: in vitro; tested at: not given; relative to: not given; direction: higher = stronger binding
Target: Histone acetyltransferase KAT6A, winged helix 2, GST fusion (KAT6A, Homo sapiens, UniProt Q92794, residues 85-181)
Setting: 8-mer, flanks averaged, mean of 2 arrays, mostly near background
Residues (chain): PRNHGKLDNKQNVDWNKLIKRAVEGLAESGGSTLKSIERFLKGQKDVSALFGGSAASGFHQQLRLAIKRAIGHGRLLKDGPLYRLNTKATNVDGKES
Strand	E-score
AAGCGGGG	-0.00951
CAGATTGA	-0.108
AAGGACAG	-0.0244
CAAAATCC	0.0852
CGATTGTA	-0.0229
CAAGACAA	0.126
CCAAATCC	-0.02
GCACGAAC	0.14
ACGTGAGT	-0.154
GCTGAGGA	-0.0382
GGTAGTCA	-0.213
ATCTCGTA	-0.0757
CATTGGCA	-0.0311
ACGCTAGT	-0.105
TCTGAGCA	0.0129
CTTAAAAG	0.0524
AAAGGACC	0.0319
ATACACCA	-0.107
CGCGGACG	0.206
ACTTGGAC	0.1
ACCCGAAA	0.0428
CTCCGTAA	-0.094
AAACTGCC	0.196
GACACGCC	0.134
CCCACAGG	0.0695

Study 3 — technique: aptamer microarray, sandwich; form: DNA with 2'F-ANA; medium: in vitro; tested at: 200 nM; with: Cy3 exosite-II aptamer, 400 nM; direction: higher = stronger binding; strand: GGTTGGTGTGGTTGG
Target: Prothrombin, mature alpha-thrombin (F2, Homo sapiens, UniProt P00734)
Setting: whole 15-mer aptamer, many near background
Modification	mean fluorescence intensity [a.u.]
2'F-ANA at 2 3 4 5 6 7 15	89.1
2'F-ANA at 1 3 7 9 10 12 15	118
2'F-ANA at 1 3 4 5 6 7 8 10 11 14 15	58.4
2'F-ANA at 2 4 6 7 8 10 12	129
2'F-ANA at 1 2 4 7 8 9 10 13 15	50.7
2'F-ANA at 2 5 6 7 8 10 12 13	48.6
2'F-ANA at 1 5 7 14	42.6
2'F-ANA at 1 3 7 8 11 13 15	292
2'F-ANA at 1 5 6 7 9 10 11 14 15	117
2'F-ANA at 1 3 6 7 8 9 11 13 14 15	91.1
2'F-ANA at 1 2 4 5 9 12 15	110
2'F-ANA at 2 3 4 5 7 8 9 10 14	46.6
2'F-ANA at 1 3 6 7 9 11 13 14	76.7
2'F-ANA at 1 2 4 5 8 9 10 12 15	55.3
2'F-ANA at 1 2 4 9 12 15	264
2'F-ANA at 1 3 7 8 9 11 12 15	561
2'F-ANA at 2 3 5 6 7 9 11 14 15	51
2'F-ANA at 3 5 7 8 9 15	164
2'F-ANA at 2 6 10 12 13	154
2'F-ANA at 2 4 6 7 9 12 14 15	101
2'F-ANA at 2 5 6 7 8	80.4
2'F-ANA at 1 2 3 4 5 6 7 9 10 11 13 14	50.1
2'F-ANA at 1 5 6 7 8 9 10 11 12 13	47.2
2'F-ANA at 2 4 5 6 10 11 13	46.2
2'F-ANA at 1 2 4 5 8 9 10 12 13 14 15	105

Study 4 — technique: universal PBM; form: double-stranded DNA, one strand shown; medium: in vitro; tested at: not given; direction: higher = stronger binding
Target: Sal-like protein 4, full length isoform B (SALL4, Homo sapiens, UniProt Q9UJQ4-2, residues 1-616)
Setting: 8-mer, flanks averaged, mean of replicates
Strand	E-score
ATGCGAGA	0.103
AGCTCAAT	0.0202
ATAGCTAT	0.334
TCCCTAGA	-0.0479
ATCACTGC	0.0113
GAGGCACC	-0.366
CTATGAAC	0.177
AAAAATAG	0.369
CGATAAAG	0.119
GTAGGAAA	0.00364
ACGGTCAA	-0.0421
ACCCCAGA	-0.194
GACACTTA	0.118
CTGTAGGA	-0.0761
CATGTTGC	-0.035
ACTGACCC	-0.165
AATACGAC	0.159
CGTAGCAC	0.0674
ACACATCT	0.0412
GCTGGGGA	-0.221
CCGACCAG	-0.361
ACAGAAGG	-0.199

Study 5 — technique: competition protein-binding microarray; form: double-stranded DNA, one strand shown; medium: in vitro; tested at: 2 µM; with: Pho4 competitor, 0.05 µM; direction: higher = stronger binding; all sequences stand within: … GTCTTGATTCGCTTGACGCTGCTG
Target: Centromere-binding protein 1, full length, His-tagged (CBF1, Saccharomyces cerevisiae, UniProt P17106, residues 1-351)
Chain of UniProt P17106 (whole entry, looked up): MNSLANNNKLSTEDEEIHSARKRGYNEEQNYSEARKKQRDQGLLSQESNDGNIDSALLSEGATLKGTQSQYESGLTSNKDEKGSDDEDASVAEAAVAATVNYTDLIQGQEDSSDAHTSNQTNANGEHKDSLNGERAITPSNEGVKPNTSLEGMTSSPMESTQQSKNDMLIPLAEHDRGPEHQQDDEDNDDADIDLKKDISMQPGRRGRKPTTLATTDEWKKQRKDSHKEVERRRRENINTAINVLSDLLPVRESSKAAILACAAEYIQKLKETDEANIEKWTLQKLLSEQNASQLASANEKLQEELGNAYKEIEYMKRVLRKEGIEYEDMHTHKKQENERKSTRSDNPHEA
Setting: whole 60-bp probe, lowest competitor level
Strand	fluorescence intensity [a.u.]
GTCTTGTCTCATTGGTAAGTGGGTGTCCCCACTTCA	72.7
CAGAAACCAACGATGCATGTGTGGGTTTGCATATGA	82.6
TCACAGTATTTTTTTCACGTGCTTTTTTTTCAAGGC	2200
GCAGCCAGGAGCTGGCACGGCGCCAACTGAAAAGTT	44.7
CTTCTGTAAATTTGGTGCGTGGGTGGACGCGCCCCG	68.3
CATACCCAACCTTGGCTCGTGGGTGAAGATATTTGT	84.2
CGTCCTAGTGATTTTCACGTGTCTTCCATGAGGAAG	1040
CATAAGTGAATGTTCCACGTGTTGAGTTTCTTACAG	873
AAATTACTAAGTTGAGCCGTGGGTGACGCCGTATGA	59.4
CGTCCTAGAGATTAGCACGTGTTTTCCATGAGGAAG	2360
GCTGCCTGCACCGACTGCGTGCGATCGTAATTGGTA	66.1
GTTGCTTGCTAATTGCATGATCAAGTTGGGCCGATG	73.7
TCAAGATTGGTGGCGCTCGTGAAATAATGCCATTGC	81.3
AAAGCGGTAATTTGGTGAGTGGGTGCAGATATCTAT	84.7
CTTTCCCGATCTTGTCACGCGACTTTAGCACATTTG	645
TAACGCTGGGTTTTGCACGTGTTGATAATTACATCG	2440
TGCGCAACAACTTGGGAGGTGGGTGTATGTCTAGAA	61.6
TTATACGTATTACATCATGTGCTCCAGCCTTGTCAG	478
TTTCTTCGACACCATCACGTAAAACAACAACCAGGA	81.9
AGCCCCGCGGGATCGCACGTATGAAGCCTGGATGAA	67.1
GATCTTCTGGGCCGTAGCGTGATGGGGTCTGTAAAT	94.8
CATACCCAACCTTGAAAGGTGGGTGAAGATATTTGT	74.7

Study 6 — Sequence: ARKRLELGNLGNPQ; technique: competitive growth deep sequencing; form: peptide; tested at: concentration not given; direction: direction not given
target or system	effect on	mode	strain	setting	growth enrichment score
Saccharomyces cerevisiae	binding		cyclin D3-Cln2 fusion strain	peptide tiling library	-1.13
yeast with cyclin D2-Cln2 chimera	cell growth	binder		peptide tiling library	-1.24
Saccharomyces cerevisiae	binding		cyclin E1-Cln2 fusion strain	tiling library, Cln2 subtracted	-0.252
yeast with cyclin F-Cln2 chimera	cell growth	binder		peptide tiling library	1.97
Saccharomyces cerevisiae	binding		cyclin D3-Cln2 fusion strain	tiling library, Cln2 subtracted	-1.13

Some of these lines once more (study 1):
Variant	relative binding score [%]
V78D	3.38
V136M	5.5
E14T	2.49
R69P	-12.6
L29E	-2.9
L82N	11.7
E147F	14.1
E38Y	-2.09
T39N	-6.2
V137E	-1.81
S87W	33.4
N61T	60.1
H110Y	12.3
N61M	29.2
A30H	6.35
N85H	74.5
